Experimental data of several laboratories.
Lines come from different studies, so protocols differ. Values joined by “and” are separate records of one study, mostly repeats; a detail may differ. ± marks the error that the study gave.

With `Cc1ccc2c(c1)sc(-c1ccc(N(C)C)cc1)[n+]2C.[I-]` the relative translation was 61% (Trypanosoma cruzi; reporter mRNA translation, inhibitor, measured: capped polyadenylated Renilla luciferase mRNA; cell-free extract; concentration not given; relative to: control RNA).
`CN1CCC[C@@H]1C(=O)N[C@@H](Cc1ccc(-c2ccccc2)cc1)B(O)O` has a blood concentration of 440 ng/mL (NODscidIL2Rγnull mice, whole blood; oral, 50 mg/kg, 4 h, mean).
`C[C@@H](C(=O)O)c1ccc(-c2ccccc2)c(F)c1` — result for “peak area change”: at most 2% (HPLC; sample solution; concentration not given, 12 h, room temperature, solution stability).
For `C#CCOCCOCCOCCOCCn1cc(C(ONC(=O)/C=C/C(C)=C/C2(C)Oc3cc(N(C)C)ccc3C2=O)(c2ccc(C)cc2)c2ccc(C)cc2)nn1` (centres unmarked), “release from prodrug hydrolysis” read 78.7% (HPLC; aqueous buffer, 20% acetonitrile; concentration not given, 76 min, pH 3; relative to: initial prodrug amount).
For `CN1CCC[C@]1(C)/C=C/S(=O)(=O)NC(=O)Nc1c2c(cc3c1CCC3O)CCC2` (some centres unmarked), “Cmax at first steady-state dose” read 38000 ng/mL (human, plasma; oral, 50 mg twice daily of parent drug, day 14, metabolite of dosed drug).
With `COc1ccnc(C(=O)N[C@H]2COC(=O)[C@H](Cc3ccccc3)[C@@H](OC(=O)C(C)C)[C@H](C)OC2=O)c1O` the KFoc was 1810 mL/g (soil adsorption; clay loam soil; pH 7.2, organic carbon 4.4 %).
With `CN(O)C(=O)CCC(=O)NCCCN(CCCCN(CCCNC(=O)CCC(=O)N(C)O)C(=O)CCC(=O)N(C)O)C(=O)CCC(=O)N(C)O.[89Zr]` the intact complex was 99.5 ± 0.9% (radio-TLC; aqueous buffer; 1 d, pH 7.2, 37 °C, 89Zr-labelled complex, together with: CaCl2 10-fold excess).
The relative translation of `CN(C)c1ccc(CNCCC2CCOC(C)(C)C2)cc1.Cl` (centres unmarked) is reported as 105% (Trypanosoma cruzi; reporter mRNA translation, inhibitor, measured: capped polyadenylated Renilla luciferase mRNA; cell-free extract; concentration not given; relative to: control RNA).
`CC1Cc2ccccc2N1C(=O)CN1CCN(Cc2ccccc2)CC1` (centres unmarked) — result for “brain to blood ratio”: 8.18 and 9.11 (female NMRI mice, whole blood; intraperitoneal, 10 mg/kg free base, 60 min; relative to: brain over blood).
With `COc1cnc2cccc(N3CCc4c(cc(Cn5ccnc5)cc4-c4cn(C)nc4C(F)(F)F)C3=O)c2c1` the AUC(0-inf) was 77500 ng·h/mL (male CD-1 mouse, plasma; intraperitoneal, 50 mg/kg).
With `Cc1c(Cc2cc(F)cc(OC(C)(C)C(=O)O)c2)c2ccc(C(=O)N[C@@H](C)c3cccc(C(C)(C)C)c3)cc2n1CC(C)C` the half-life was over 60 min (human liver microsomes; 1 µM, together with: microsomes 1 mg/mL).
The plasma concentration of `Cc1noc(C)c1Cn1cc(N2C(=O)CN(Cc3cccc(O[C@@H]4O[C@H](C(=O)O)[C@@H](O)[C@H](O)[C@H]4O)c3)C2=O)cn1` is reported as 4750 ng/mL (Sprague-Dawley rat, male; oral, 30 mg/kg of parent drug, 2 h).
Under pharmacokinetic parameters, `C=CC(=O)Nc1cc(Nc2nccc(-c3cn(C4CC4)c4ccccc34)n2)c(OC)cc1N(C)CCNC` is recorded as “no effect” (rat Sprague-Dawley; together with: nicardipine; relative to: without nicardipine).
The half-life of `N=C(N)NCCC[C@@H]1NC(=O)[C@H](CO)NC(=O)[C@@H](NC(=O)[C@H](CO)NC(=O)[C@H](CO)NC(=O)[C@H](Cc2c[nH]c3ccccc23)NC(=O)CNC(=O)[C@H](CO)NC(=O)[C@@H](N)Cc2c[nH]c3ccccc23)CSSC[C@@H](C(=O)NCC(=O)O)NC(=O)[C@H](CO)NC1=O` is reported as 17.9 min (patients, plasma; intravenous, 5 mg/kg, thrice weekly, geometric mean).
Under “subjects with adverse events”, `CC(C)(O)c1ncc([S@](N)(=O)=NC(=O)Nc2c3c(cc4c2CCC4)CCC3)s1` is recorded as 17% (measured: Vascular disorders; healthy human volunteers; oral, 10 mg once daily, 14 days, capsule formulation).
`O=C([O-])CN1CCN(CC(=O)[O-])CCN(CC(O)CN(CC(O)CN2CCN(CC(=O)[O-])CCN(CC(=O)[O-])CCN(CC(=O)[O-])CC2)C[C@H](O)[C@@H](O)[C@H](O)[C@H](O)CO)CCN(CC(=O)[O-])CC1.[Gd+3]` (some centres unmarked) gave a log K of 9.99 (pH-potentiometry, spectrophotometry, measured: Gd(LH-1)M, M = Cu2+; 25 °C, 0.15 M NaCl).
`CSCC[C@H](N)C(=O)N[C@@H](CO)C(=O)N[C@H](C(=O)N[C@@H](C)C(=O)NCC(=O)N[C@@H](CC(C)C)C(=O)N[C@@H](CCCCN)C(=O)N[C@@H](CCCCN)C(=O)N[C@@H](CCC(N)=O)C(=O)N[C@@H](Cc1c[nH]c2ccccc12)C(=O)N[C@@H](Cc1c[nH]cn1)C(=O)N[C@@H](CCCCN)C(=O)N[C@@H](C)C(=O)N[C@H](C(=O)N[C@@H](CCC(N)=O)C(=O)N[C@@H](CCCCN)C(=O)N[C@H](C(=O)N[C@@H](CO)C(=O)N[C@@H](CCC(=O)O)C(=O)N[C@@H](CCCCN)C(=O)N[C@H](C(=O)NCC(=O)NCC(=O)N[C@@H](C)C(N)=O)C(C)C)C(C)C)[C@@H](C)O)C(C)C` — result for “ΔG of binding”: -7.2 kcal/mol (circular dichroism titration; 100% DOPS liposomes; 50 µM, pH 7.4, 20 °C).

Some of these lines once more:
`CC1Cc2ccccc2N1C(=O)CN1CCN(Cc2ccccc2)CC1` (centres unmarked) — result for “brain to blood ratio”: 8.18 and 9.11 (female NMRI mice, whole blood; intraperitoneal, 10 mg/kg free base, 60 min; relative to: brain over blood).
With `COc1cnc2cccc(N3CCc4c(cc(Cn5ccnc5)cc4-c4cn(C)nc4C(F)(F)F)C3=O)c2c1` the AUC(0-inf) was 77500 ng·h/mL (male CD-1 mouse, plasma; intraperitoneal, 50 mg/kg).
With `Cc1c(Cc2cc(F)cc(OC(C)(C)C(=O)O)c2)c2ccc(C(=O)N[C@@H](C)c3cccc(C(C)(C)C)c3)cc2n1CC(C)C` the half-life was over 60 min (human liver microsomes; 1 µM, together with: microsomes 1 mg/mL).
